Results collected from several papers.
Protocols differ between the studies behind these lines. Values joined by “and” are separate records of one study, mostly repeats; a detail may differ. Numbers after ± are the reported error. ≈ marks a conversion by molar mass, not a printed value.

| Substance | assay | test system | setting | how to read | endpoint | result |
| --- | --- | --- | --- | --- | --- | --- |
| C[C@H]1CO[C@@H]2Cn3cc(C(=O)NCc4ccc(F)cc4F)c(=O)c(O)c3C(=O)N12 | Holter monitoring | healthy human subjects | oral, 150 mg every 12 h for 3 doses, 8 h | relative to: placebo | maximum ΔΔQTcF | 2.62 ± 1.59 ms |
| CC(=O)O[C@H]1C(=O)[C@@]2(C)[C@H]([C@H](OC(=O)c3ccccc3)[C@]3(O)C[C@H](OC(=O)[C@H](O)[C@@H](NC(=O)c4ccccc4)c4ccccc4)C(C)=C1C3(C)C)[C@]1(OC(C)=O)CO[C@@H]1C[C@@H]2O | noncompartmental analysis | human, plasma | intravenous, 80 mg/m^2, day 8, DL2 geometric mean, added: onalespib 150 mg/m^2 | – | clearance | 14.4 ± 1.36 L/h/m² |
| CCn1cc(-c2nc(C)no2)c(=O)c2cc(F)c(N3CCC(C)CC3)cc21 | – | FaSSGF | 2 h, pH 1.2, 25 °C | – | kinetic solubility | 4.6 µM |
| CC(=O)c1ccc([C@H]2C[C@@]3(C)[C@@H](CC[C@@]3(O)C(F)(F)C(F)(F)F)[C@@H]3CCC4=CC(=O)CCC4=C32)cc1 | – | human liver microsomes | 100 % absorption assumed | – | maximal oral bioavailability | 77% |
| O=C(O)c1cccc(CN2CN(C3CCCCC3)C3(CCN(CCCC(=O)c4ccccc4)CC3)C2=O)c1 | – | human healthy adults, plasma | dose not given, 24 h, added: esomeprazole | – | subjects below LLOQ | > 50% |
| CCCCCCOC(=O)NC(=N)c1ccc(NCc2nc3cc(C(=O)N(CCC(=O)OCC)c4ccccn4)ccc3n2C)cc1 | – | healthy human | oral, 150 mg single dose, 1.5 to 3 h | relative to: baseline, time-matched | change in QTcI | -4.9 ms |
| NC1(c2ccc(-c3nc4ccn5c(=O)[nH]nc5c4cc3-c3ccccc3)cc2)CCC1 | ELISA | human, serum | dose not given | – | dalotuzumab trough serum concentration | no effect |
| Cc1nc2cccc(OCC(C)(C)C(=O)NC(C)C)c2c(N)c1C(=O)O | – | male Sprague-Dawley rat, plasma | dietary, 60 mg/kg/day, day 7 | – | Cmax | 15.9 ng/mL |
| CC[C@H](C)[C@H](NC(=O)CNC(=O)[C@H](Cc1ccccc1)NC(C)=O)C(=O)N[C@@]1(C)CCCC=CCCC[C@@](C)(C(=O)N[C@@H](CC(C)C)C(=O)N[C@@H](CCCCN)C(=O)N[C@H](C(N)=O)[C@@H](C)O)NC(=O)[C@H](CC(N)=O)NC(=O)[C@H]([C@@H](C)O)NC(=O)[C@H](CC(C)C)NC1=O | circular dichroism | PBS with 50% trifluoroethanol | 0.3 mg/mL, pH 7.4, 25 °C | – | α-helicity | 43.8% |
| COc1cc(OC)c(/C=C/S(=O)(=O)Cc2ccc(OC)c(NCC(=O)O)c2)c(OC)c1 | – | cancer patients, phase I, plasma | oral, 70 mg twice daily, day 1 cycle 1 | – | Vss/F | 439 ± 513 L |
| CCN(CC)CCNC(=O)c1c(C)[nH]c(/C=C2\C(=O)Nc3ccc(F)cc32)c1C | – | human, plasma | oral, 15 mg/m2, day 14 | – | minimum trough plasma concentration | 11.9 ng/mL |
| O=C(O)[C@H]1/C(=C/CO)O[C@@H]2CC(=O)N21 | – | rat plasma | 300 ng/mL, three freeze-thaw cycles | – | measured concentration | 291 ± 15 ng/mL |
| OC[C@H]1O[C@@H](c2ccc(F)c(Cc3cc4ccccc4s3)c2)[C@H](O)[C@@H](O)[C@@H]1O | – | Wistar rat, male, kidney | oral, dose not given, 1 h | relative to: kidney over plasma concentration | tissue/plasma ratio | 1420 ± 405 |
| CC(C)NC[C@@H](C(=O)N1CCN(c2ncnc3c2[C@H](C)C[C@H]3O)CC1)c1ccc(Cl)cc1 | – | human, hepatic impairment Severe (Child-Pugh), plasma | oral, 100 mg single, geometric mean | – | AUC(0-72) | 632 ng·h/mL |
| Cc1ccccc1-c1cc(N2CCN(C)CC2)ncc1N(C)C(=O)C(C)(C)c1cc(C(F)(F)F)cc(C(F)(F)F)c1 | – | human, plasma | oral, dose not given | – | time to first quantifiable plasma level | ≤ 1 h |
| COC(=O)N[C@H](C(=O)N[C@@H](Cc1ccccc1)[C@@H](O)CN(Cc1ccc(-c2ccccn2)cc1)NC(=O)[C@@H](NC(=O)OC)C(C)(C)C)C(C)(C)C | modified PAMPA Franz cell | phosphate buffer with HPMCAS | stock 20 mg/mL, 3 h, 37 °C, 460 nm system, 300 rpm, added: 3% BSA receiver | – | free drug permeability | 51.7 ± 8.1 ×10⁻⁶ cm/s |
| colistin B methanesulfonate | one-compartment PK model | rat | i.p., 20 mg/kg colistin base activity | – | total body clearance | 9.69 ± 3.95 mL/min/kg |
| COc1ccc(C[C@@H](C)[C@@H](C)Cc2ccc(OC)c(OC)c2)cc1OC | – | human patients | oral, all dose levels, fed or fasted | – | maximum AUC | < 5000 ng·h/mL |
| Cn1c(-c2ccc(C(N)=O)cc2F)nnc1C(C)(C)Oc1c(F)cc(Cl)cc1F | – | young Japanese adults, plasma | oral, 20 mg single dose, day 1, high-dose multiple-dose study | – | Tmax range over subjects | 1 to 4 h |
| CC1=C2C[C@H]3[C@@H](CC[C@@H]4C[C@H](NS(C)(=O)=O)CC[C@@]43C)[C@@H]2CC[C@@]2(C1)O[C@@H]1C[C@H](C)CN[C@H]1[C@H]2C | – | patients, plasma | oral, 30 mg single, day -7, cycle 1 | – | AUC(0-24) | 68.3 ng·h/mL |
| Cc1[nH]c(=O)c(CNC(=O)c2ccc([N+](=O)[O-])o2)c2c1CCCC2 | U-HPLC | 20% DMSO in water | – | – | kinetic solubility | 204 µg/mL |
| O=C1CN(/N=C/c2ccc(-c3ccc([N+](=O)[O-])cc3)o2)C(O)=N1 | – | Sprague-Dawley rat, male, liver | oral, 1000 mg/kg, 24 h, single high dose | direction not given | hepatocyte vacuolization score | 0 |
| CN[C@H](CC(C)C)C(=O)N[C@H]1C(=O)N[C@@H](CC(N)=O)C(=O)N[C@H]2C(=O)N[C@H]3C(=O)N[C@H](C(=O)N[C@H](C(=O)O)c4cc(O)cc(O)c4-c4cc3ccc4O)[C@H](O)c3ccc(c(Cl)c3)Oc3cc2cc(c3O[C@@H]2O[C@H](CO)[C@@H](O)[C@H](O)[C@H]2O[C@H]2C[C@](C)(N)[C@H](O)[C@H](C)O2)Oc2ccc(cc2Cl)[C@H]1O | microdialysis | pig, Danish Landrace, cortical bone | intravenous, 1000 mg over 100 min, 450 min dosing interval, added: 2.0 µg/mL MIC | relative to: dosing interval | time above MIC | 31% |

| Substance | assay | test system | setting | how to read | endpoint | result |
| --- | --- | --- | --- | --- | --- | --- |
| CC[C@H](C)[C@@H]1NC(=O)[C@H](Cc2ccc(O)cc2)NC(=O)[C@@H](N)CSSC[C@@H](C(=O)N2CCC[C@H]2C(=O)N[C@@H](CC(C)C)C(=O)NCC(N)=O)NC(=O)[C@H](CC(N)=O)NC(=O)[C@H](CCC(N)=O)NC1=O | microdialysis, radioimmunoassay | C57BL/6J male mice, wild type, hippocampus extracellular fluid | intranasal, 12 µg, incremental area over baseline | – | AUC above baseline | 85.4 ± 53.4 pg·30 min/sample |
| CN1CC[C@@H](NC(=O)Nc2ccc(C#N)cc2)C[C@@H]1c1nc2ccccc2[nH]1 | – | human, severe hepatic impairment, plasma | oral, 100 mg, single dose, fasted | – | unbound Cmax | 73.3 ± 36.8 ng/mL |
| CCCC[C@@H]1NC(=O)[C@@H](NC(=O)[C@H](CCC(=O)O)NC(=O)CNC(=O)CN2CCN(CC(=O)O)CCN(CC(=O)O)CCN(CC(=O)O)CC2)CCCCNC(=O)C[C@@H](C(N)=O)NC(=O)[C@H](C(C)C)NC(=O)[C@@H]2CCCN2C(=O)[C@H](CCCNC(=N)N)NC(=O)CNC(=O)[C@H](Cc2c[nH]c3ccccc23)NC(=O)[C@H](CCCNC(=N)N)NC(=O)[C@@H](Cc2ccccc2)NC(=O)[C@H](Cc2c[nH]cn2)NC(=O)[C@H](CCC(=O)O)NC1=O [indium-111 labelled] | – | C57 mice, B16/F10 lung metastatic melanoma, brain | intravenous, 0.037 MBq, 24 h | – | tissue uptake | 0.03 ± 0.03 %ID/g |
| CCCOc1ccc(S(=O)(=O)NCCC2CCCN2C)cc1-c1nc2c(CCC)nn(C)c2c(=O)[nH]1 (stereo not drawn) | – | human adolescents after Fontan palliation | oral, dose not given, 5 days, all dose cohorts | – | subjects with drug-related abdominal discomfort | 7% |
| Clc1ccc(Nc2nnc(Cc3ccncc3)c3ccccc23)cc1 | MALDI-MSI | female Balb/c mouse, C26 tumor, subcutaneous C26 tumor | oral, 100 mg/kg for two weeks, 2 h | – | intratumoral concentration | 178 nM |
| C[C@H]1Oc2cc(cnc2N)-c2c(nn(C)c2C#N)CN(C)C(=O)c2ccc(F)cc21 | – | human (NSCLC and healthy) | oral, 100 mg, PopPK, steady state | – | maximum induced clearance | 241 mL/min |
| COc1ccc(-c2cc(=O)c3cc(OC)c(OC)c(OC)c3o2)cc1OC | – | C57BL/6 mouse, male, small intestine | oral, 1% w/w in diet, 6 weeks, orange peel extract diet | relative to: content in orange peel | tissue to peel content ratio | 2.7% |
| O=C(O)[C@H](c1ccccc1Cl)N1CCc2sccc2C1 | HPLC-MS/MS | feline EDTA plasma | 72 h, 4 °C, storage stability | – | deviation from nominal | -11% |
| C[C@](N)(Cc1ccc(O)c(O)c1)C(=O)O | static gravimetric method | supercritical CO2, 587.2 kg/m3 | 5 h, 323 K, pressure 12 MPa | – | solubility | 53 µg/mL (≈ 251 µM) |
| Nc1cc[nH]c(=O)n1 | UHPLC-MS | male CD-1 mice, plasma | intravenous, 1 mg/kg, from 4 h postdose | – | terminal half-life | 1220 min |
| COc1cc2nccc(Oc3ccc(NC(=O)C4(C(=O)Nc5ccc(F)cc5)CC4)cc3)c2cc1OC | – | male Sprague-Dawley rat, hypoxic pulmonary hypertension | subcutaneous, 20 mg/kg, 28 days post-hypoxia, 3 weeks hypoxia | – | right ventricular systolic pressure | 36.2 ± 3.4 mmHg |
| CC(C)=CCC[C@](C)(O[C@@H]1O[C@H](CO)[C@@H](O)[C@H](O)[C@H]1O)[C@H]1CC[C@]2(C)[C@@H]1[C@H](O)C[C@@H]1[C@@]3(C)CC[C@H](O)C(C)(C)[C@@H]3[C@@H](O[C@@H]3O[C@H](CO)[C@@H](O)[C@H](O)[C@H]3O[C@@H]3O[C@@H](C)[C@H](O)[C@@H](O)[C@H]3O)C[C@]12C | – | rat, extracted plasma QC samples | 0.1 µg/mL, 24 h, 15 °C, autosampler | – | post-preparative stability accuracy | 94.7 ± 7.5% |
| CNCc1ccc(-c2[nH]c3cc(F)cc4c3c2CCNC4=O)cc1 | – | human cancer patients, plasma | intravenous, 18 mg/m2, day 1, added: temozolomide 200 | – | volume of distribution | 378 L |
| COc1cc2c(cc1OC)[C@@H]1Cc3ccc(OC)c(OC)c3CN1CC2 | – | rat plasma QC sample | 2 ng/mL nominal, 24 h, low QC level autosampler stability | – | measured concentration | 2.01 ± 0.11 ng/mL |
| Cc1cc(Nc2ncc(Cl)c(Nc3ccccc3S(=O)(=O)C(C)C)n2)c(OC(C)C)cc1C1CCNCC1 | measured: unbound drug | human, plasma | oral, 750 mg/day | – | Tss,max | 6 h and 8.1 h |
| CC(C)C[C@H](NC(=O)[C@H](CC(C)C)NC(=O)[C@@H](Cc1c[nH]c2ccccc12)NC(=O)[C@@H](NC(=O)[C@@H](Cc1c[nH]c2ccccc12)NC(=O)[C@@H](N)CCCCN)[C@H](c1ccccc1)c1c[nH]c2ccccc12)C(N)=O | RP-HPLC Jupiter Proteo | – | acetonitrile/water TFA gradient | – | HPLC retention | 58 %B |
| C[C@]12CC[C@@H]3c4ccc(O)cc4CC[C@H]3[C@@H]1C[C@@H](O)[C@@H]2O | GC-MS | breast cancer women on NSAI, serum | vaginal, 0.03 mg daily, 3 h, day 28 | – | maximum serum concentration | 0.0292 ng/mL |
| FC(F)(F)c1cccc(Nc2ncnc3ccccc23)c1 | potentiometric titration | 1-octanol/water, 0.15 M KCl | ionic species, optimized protocol | – | logP | 1.32 |
| CCCC[C@H](NC(C)=O)C(=O)N[C@H]1CCC(=O)NC[C@@H](C(=O)N[C@@H](Cc2c[nH]c3ccccc23)C(N)=O)NC(=O)[C@H](CCCNC(=N)N)NC(=O)[C@@H](Cc2ccccc2)NC(=O)[C@H](Cc2c[nH]cn2)NC1=O | – | beagle dog, male, plasma | subcutaneous, 1.5 mg/kg daily, day 28 | – | AUC(0-last) | 194 ng·h/mL |
| CCCSc1nc(N[C@@H]2C[C@H]2c2ccc(F)c(F)c2)c2nnn([C@@H]3C[C@H](OCCO)[C@@H](O)[C@H]3O)c2n1 | – | Wistar Han rat, male, plasma | oral, 20 mg/kg/day, day 1, carcinogenicity study | – | AUC | 11.9 µM·h |
| CC(C)=CCC[C@](C)(O[C@@H]1O[C@H](CO[C@@H]2O[C@H](CO)[C@@H](O)[C@H](O)[C@H]2O)[C@@H](O)[C@H](O)[C@H]1O)[C@H]1CC[C@]2(C)[C@@H]1[C@H](O)C[C@@H]1[C@@]3(C)CC[C@H](O[C@@H]4O[C@H](CO)[C@@H](O)[C@H](O)[C@H]4O[C@@H]4O[C@H](CO)[C@@H](O)[C@H](O)[C@H]4O)C(C)(C)[C@@H]3CC[C@]12C | – | Sprague Dawley rat, male, plasma | oral, 86 mg/kg, in white ginseng extract | – | AUC(0-36 h) | 108 ± 19.5 µg·h/mL |
| CCCCCCCC/C=C\CCCCCCCC(=O)O[C@H](COC(=O)CCCCCCCCCCCCCCC)COP(=O)([O-])OCC[N+](C)(C)C | dynamic light scattering | lipid vesicles | 1.0 mg/mL, 25 °C, 1:1 wt/wt, 24 h at 50 °C | – | particle size | 10.4 nm |
